# Measurements of several laboratories.
# Compare with care: the assays were run in different laboratories. Numbers after ± are the reported error.
Structure (SMILES),assay,test system,setting,scale,measurement,value
CC[C@@H](C)[C@@H](NC(=O)[C@@H](C)NC(=O)[C@@H](CCCCN)NC(=O)[C@@H](CC(C)C)NC(=O)[C@@H](C)NC(=O)[C@H](NC(=O)[C@@H](Cc1c[nH]cn1)NC(=O)[C@@H](CC(C)C)NC(=O)[C@H](NC(=O)[C@H](NC(=O)[C@@H](CCCCN)NC(=O)[C@@H](CCCCN)NC(=O)[C@@H](C)NC(=O)[C@@H](CO)NC(=O)[C@@H](CCCCN)NC(=O)[C@@H](Cc1ccccc1)NC(=O)[C@H](NC(=O)[C@@H](CCCCN)NC(=O)[C@@H](CC(C)C)NC(=O)[C@@H](Cc1ccccc1)NC(=O)[C@@H](CO)NC(=O)[C@@H](CCCCN)NC(=O)[C@@H](Cc1c[nH]c2ccccc12)NC(=O)[C@@H](CCCCN)NC(C)=O)[C@H](C)O)[C@H](C)O)C(C)C)[C@H](C)O)C(=O)N[C@H](CO)C(=O)N[C@H](CO)C(N)=O,circular dichroism,aqueous phosphate buffer,"pH 7.0, 5 °C, at 222 nm",,mean residue ellipticity,1150 deg cm²/dmol
CC(C)[C@@H]1NC(=O)[C@H](Cc2ccccc2)NC(=O)[C@H](Cc2ccc(O)cc2)NC(=O)CCSSC[C@@H](C(=O)N2CCC[C@H]2C(=O)N[C@H](CCCNC(=N)N)C(=O)NCC(N)=O)NC(=O)[C@H](CCC(N)=O)NC1=O,,"Wistar rat, blood","intravenous, 1 µg/kg single dose, 72 h",,ALT,20.6 ± 2.7 IU/L
CC(C)[C@H](NC(=O)CNC(=O)[C@H](CCC(N)=O)NC(=O)[C@H](C)N)C(=O)O,moderate intensity,human,"30 mg/kg, 3 days, thrice daily dosing",,subjects with adverse events,0%
COc1ccc2c3c(c4cc(OC)c(OC)cc4c2c1)CN1CCCC1C3 (stereo not drawn),,swine cells,24 (unit not given),,CC50,71.5 ± 2.15 µM
CC[C@@]1(O)C(=O)OCc2c1cc1n(c2=O)Cc2c-1nc1cc(F)c(C)c3c1c2[C@@H](NC(=O)CCCN)CC3,PAMPA,GIT-0 lipid membrane,"5 µM, 4 h, pH 7.4, 25 °C",,Peff,< 0.1 ×10⁻⁶ cm/s
CN(C)C(CNC(=O)Nc1cc(C(F)(F)F)ccc1N1CCOCC1)c1ccncc1 (stereo not drawn),,"mouse, serum","intraperitoneal, 120 mg/kg single dose",,serum direct bilirubin,0 mg/dL
COc1cc(NC(=O)C(=O)c2c(C)n(Cc3ccc(Cl)cc3)c3ccc(C)cc23)ccn1,,"female cynomolgus monkey, plasma","oral, 10 mg/kg",,Cmax,545 ng/mL
O.[C-]#[O+].[C-]#[O+].[C-]#[O+].[Re+].c1cnc2c(c1)ccc1cccnc12,"RP-HPLC C18 column, measured: free diimine ligand","MeCN:water 40:60, 0.1% TFA",isocratic elution,,capacity factor,0.44
CC[C@H](C)[C@H](NC(=O)[C@H](CCC(=O)O)NC(=O)[C@H](CCC(=O)O)NC(=O)[C@H](Cc1ccccc1)NC(=O)[C@H](CC(=O)O)NC(=O)CNC(=O)[C@H](CC(N)=O)NC(=O)CNC(=O)CNC(=O)CNC(=O)CNC(=O)[C@@H]1CCCN1C(=O)[C@H](CCCNC(=N)N)NC(=O)[C@@H]1CCCN1C(=O)[C@H](N)Cc1ccccc1)C(=O)N1CCC[C@H]1C(=O)N[C@@H](CCC(=O)O)C(=O)N[C@@H](CCC(=O)O)C(=O)N[C@@H](Cc1ccc(O)cc1)C(=O)N[C@@H](CC(C)C)C(=O)O,,"male human, plasma","intravenous, 0.5 mg/kg, single dose, healthy volunteers",,MRT,24 min
N=C(N)NCCC[C@@H]1NC(=O)[C@H](CCCNC(=N)N)NC(=O)[C@H](CCCNC(=N)N)NC(=O)[C@H](CCCNC(=N)N)NC(=O)[C@H](Cc2c[nH]c3ccccc23)NC(=O)[C@H](CCCNC(=N)N)NC(=O)[C@H](CCCNC(=N)N)NC(=O)[C@@H](N)CCCn2cc(nn2)C[C@@H](C(N)=O)NC1=O,,zebrafish embryos,"50 µg/mL, 72 h",,hatching rate,55%
CC(C)[C@H](NC(=O)CNC(=O)[C@H](CCC(N)=O)NC(=O)[C@H](C)N)C(=O)O,,healthy male volunteers,"intravenous, 90 mg/kg/h, 2 h, with: LPS 2 ng/kg",,subjects with Possibly related AE,0%
CC[C@H](C)C(=O)N1CCC(NC(=O)Nc2ccc(OC(F)(F)F)c(F)c2)CC1,,healthy volunteers,"oral, 16 mg single dose, 14 (unit not given)",,subjects with severe TEAE,0%
CC(C)[C@H]1NC(=O)C[C@H]2/C=C/CCSSC[C@@H](NC1=O)C(=O)N[C@H](Cc1cccc3ccccc13)C(=O)NCC(=O)O2,,"nude mouse, blood","intraperitoneal, 4 mg/kg",,Tmax,15 min
CC(C)C[C@H](NC(=O)[C@H](CCCCN)NC(=O)[C@H](CCC(=O)O)NC(=O)[C@H](C)NC(=O)[C@@H](NC(=O)[C@H](CCCCN)NC(=O)[C@H](CC(=O)O)NC(=O)[C@H](Cc1ccc(O)cc1)NC(=O)[C@H](Cc1ccccc1)NC(=O)[C@H](C)NC(=O)[C@H](CCCCN)NC(=O)[C@H](CC(C)C)NC(=O)[C@H](Cc1c[nH]c2ccccc12)NC(=O)[C@@H](N)CC(=O)O)C(C)C)C(=O)N[C@@H](CCCCN)C(=O)N[C@@H](CCC(=O)O)C(=O)N[C@@H](C)C(=O)N[C@@H](Cc1ccccc1)C(=O)N1CCC[C@H]1C(=O)N[C@@H](CC(=O)O)C(=O)N[C@@H](Cc1c[nH]c2ccccc12)C(=O)N[C@@H](C)C(=O)N[C@@H](CCCCN)C(=O)N[C@@H](C)C(=O)N[C@@H](C)C(=O)N[C@@H](Cc1ccc(O)cc1)C(=O)N[C@@H](CC(=O)O)C(=O)N[C@@H](CCCCN)C(=O)N[C@@H](C)C(=O)N[C@@H](C)C(=O)N[C@@H](CCC(=O)O)C(=O)N[C@@H](CCCCN)C(=O)N[C@@H](C)C(=O)N[C@@H](CCCCN)C(=O)N[C@@H](CCC(=O)O)C(=O)N[C@@H](C)C(=O)N[C@@H](C)C(=O)O,,"cynomolgus monkey female, plasma","intravenous infusion, 8 mg/kg every other day, day 27",,AUC(0-inf),573 µg·h/mL
COc1ccc(C)cc1NC(=O)OC1CC2CCCC(C1)N2Cc1ccc(CC[18F])cc1 (stereo not drawn),,"BALB/c mice, EMT6 tumour",5 min,reference: tumour over muscle,tumour to tissue ratio,0.3
CC[C@H](C)[C@H](NC(=O)[C@H](CCCN)NC(=O)[C@H](CC(N)=O)NC(=O)[C@H](Cc1c[nH]c2ccccc12)NC(=O)[C@H](Cc1ccccc1)NC(=O)[C@H](CCCN)NC(=O)[C@H](CCCCNC(=N)N)NC(=O)[C@H](CC(C)C)NC(=O)[C@H](Cc1c[nH]c2ccccc12)NC(=O)[C@H](CCCN)NC(=O)[C@H](CCCCNC(=N)N)NC(=O)[C@H](CC(C)C)NC(=O)CNC(C)=O)C(=O)N[C@@H](CCCN)C(=O)N[C@@H](CCCCNC(=N)N)C(N)=O,,Kunming mice,"intravenous, 25 mg/kg, 5 days",,survival,0%
CCCCCCCCCCCCCCC(=O)O.O=C1CCCC2C3CCCN4CCCC(CN12)C34 (stereo not drawn),thermogravimetry,,"first decomposition step, with: heating 10 K/min under argon",,onset decomposition temperature,271 °C
O=C(N=P12CN3CN(CN(C3)C1)C2)c1ccccn1.[Cl][Au+][Cl].[O-][Cl+3]([O-])([O-])[O-],NMR,DMSO,room temperature,,decomposition time,4 h
Nc1ccn(CC2COP(=O)(OCCCCCCNC(=O)CCCCC3SCC4NC(=O)NC43)CO2)c(=O)n1 (mixture of isomers),,"rabbit, retina-choroid",,reference: parent CDF,partition coefficient,4.9 fold
C/C=C/C=C/C/C=C/CCCCCCCc1cccc(O)c1O,,"female Kunming mice tumour-bearing, kidneys","intravenous, 10 mg/kg, 1 h",,tissue concentration,15700 ± 1450 ng/g
O=C(CN1CCN(c2cc3c(cc2F)c(=O)c(C(=O)O)cn3C2CC2)CC1)Nc1ccc(Cl)cc1,,"BALB/c mice, female, plasma","iv, 1.25 mg/kg",,clearance,0.00447 mL/min

# Some of these lines once more:
Structure (SMILES),assay,test system,setting,scale,measurement,value
CC[C@H](C)[C@H](NC(=O)[C@H](CCC(=O)O)NC(=O)[C@H](CCC(=O)O)NC(=O)[C@H](Cc1ccccc1)NC(=O)[C@H](CC(=O)O)NC(=O)CNC(=O)[C@H](CC(N)=O)NC(=O)CNC(=O)CNC(=O)CNC(=O)CNC(=O)[C@@H]1CCCN1C(=O)[C@H](CCCNC(=N)N)NC(=O)[C@@H]1CCCN1C(=O)[C@H](N)Cc1ccccc1)C(=O)N1CCC[C@H]1C(=O)N[C@@H](CCC(=O)O)C(=O)N[C@@H](CCC(=O)O)C(=O)N[C@@H](Cc1ccc(O)cc1)C(=O)N[C@@H](CC(C)C)C(=O)O,,"male human, plasma","intravenous, 0.5 mg/kg, single dose, healthy volunteers",,MRT,24 min
N=C(N)NCCC[C@@H]1NC(=O)[C@H](CCCNC(=N)N)NC(=O)[C@H](CCCNC(=N)N)NC(=O)[C@H](CCCNC(=N)N)NC(=O)[C@H](Cc2c[nH]c3ccccc23)NC(=O)[C@H](CCCNC(=N)N)NC(=O)[C@H](CCCNC(=N)N)NC(=O)[C@@H](N)CCCn2cc(nn2)C[C@@H](C(N)=O)NC1=O,,zebrafish embryos,"50 µg/mL, 72 h",,hatching rate,55%
